Results gathered from unrelated publications.
Parts stem from different laboratories: compare values within a part only. Values joined by “and” are separate records of one study, mostly repeats; a detail may differ.
Sequence of UniProt P53350 (whole entry, looked up): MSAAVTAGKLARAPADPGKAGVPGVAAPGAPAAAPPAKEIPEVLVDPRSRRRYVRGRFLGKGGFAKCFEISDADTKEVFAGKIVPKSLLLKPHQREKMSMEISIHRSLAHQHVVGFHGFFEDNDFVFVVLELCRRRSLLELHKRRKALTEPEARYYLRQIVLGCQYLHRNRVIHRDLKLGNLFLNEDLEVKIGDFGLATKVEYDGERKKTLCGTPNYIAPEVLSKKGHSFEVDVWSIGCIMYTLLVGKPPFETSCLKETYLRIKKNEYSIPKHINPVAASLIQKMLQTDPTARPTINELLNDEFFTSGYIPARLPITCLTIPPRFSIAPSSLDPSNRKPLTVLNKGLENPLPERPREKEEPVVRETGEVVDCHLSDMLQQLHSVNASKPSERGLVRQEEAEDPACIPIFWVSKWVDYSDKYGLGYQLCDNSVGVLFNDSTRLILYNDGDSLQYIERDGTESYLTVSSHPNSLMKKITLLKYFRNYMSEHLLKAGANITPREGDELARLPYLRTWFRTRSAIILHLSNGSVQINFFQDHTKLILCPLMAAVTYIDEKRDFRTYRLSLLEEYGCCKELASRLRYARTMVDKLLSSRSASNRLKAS
Sequence of UniProt Q14680 (whole entry, looked up): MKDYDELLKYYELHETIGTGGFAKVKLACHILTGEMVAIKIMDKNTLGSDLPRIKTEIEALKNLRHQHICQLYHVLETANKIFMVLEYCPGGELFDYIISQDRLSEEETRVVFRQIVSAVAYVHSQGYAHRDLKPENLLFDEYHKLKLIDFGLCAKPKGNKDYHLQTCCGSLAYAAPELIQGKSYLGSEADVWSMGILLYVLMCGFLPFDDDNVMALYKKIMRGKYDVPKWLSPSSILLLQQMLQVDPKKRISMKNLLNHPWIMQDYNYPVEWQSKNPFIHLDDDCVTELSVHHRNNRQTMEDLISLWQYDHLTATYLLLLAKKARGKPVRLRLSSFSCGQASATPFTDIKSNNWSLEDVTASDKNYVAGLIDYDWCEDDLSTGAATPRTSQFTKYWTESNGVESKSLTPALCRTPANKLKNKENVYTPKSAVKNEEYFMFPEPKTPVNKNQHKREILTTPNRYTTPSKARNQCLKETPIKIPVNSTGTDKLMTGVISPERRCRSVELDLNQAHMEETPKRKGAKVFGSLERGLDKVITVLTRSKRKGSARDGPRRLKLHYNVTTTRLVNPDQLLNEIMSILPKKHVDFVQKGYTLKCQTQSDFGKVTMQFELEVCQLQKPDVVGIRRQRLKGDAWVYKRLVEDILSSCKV
Sequence of UniProt Q8N568 (whole entry, looked up): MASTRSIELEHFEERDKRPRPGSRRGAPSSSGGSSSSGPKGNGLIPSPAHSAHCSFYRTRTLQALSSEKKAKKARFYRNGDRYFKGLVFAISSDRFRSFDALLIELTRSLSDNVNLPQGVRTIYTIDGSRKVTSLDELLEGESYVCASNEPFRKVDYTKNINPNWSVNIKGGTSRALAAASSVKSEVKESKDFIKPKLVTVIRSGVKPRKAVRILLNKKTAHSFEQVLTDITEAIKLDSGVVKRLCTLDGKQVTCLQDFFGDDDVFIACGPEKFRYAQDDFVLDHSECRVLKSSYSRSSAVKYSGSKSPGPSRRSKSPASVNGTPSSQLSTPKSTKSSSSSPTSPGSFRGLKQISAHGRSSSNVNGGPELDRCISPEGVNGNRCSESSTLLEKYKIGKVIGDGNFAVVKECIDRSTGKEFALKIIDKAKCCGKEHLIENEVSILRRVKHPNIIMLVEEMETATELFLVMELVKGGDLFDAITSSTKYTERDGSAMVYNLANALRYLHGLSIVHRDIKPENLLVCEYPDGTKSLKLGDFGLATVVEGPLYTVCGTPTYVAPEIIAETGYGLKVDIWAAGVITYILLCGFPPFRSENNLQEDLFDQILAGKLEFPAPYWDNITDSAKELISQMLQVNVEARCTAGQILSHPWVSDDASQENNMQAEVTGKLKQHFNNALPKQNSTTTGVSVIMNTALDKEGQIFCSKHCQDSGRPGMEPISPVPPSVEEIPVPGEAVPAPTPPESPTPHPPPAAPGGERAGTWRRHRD
Sequence of UniProt Q9BUB5 (whole entry, looked up): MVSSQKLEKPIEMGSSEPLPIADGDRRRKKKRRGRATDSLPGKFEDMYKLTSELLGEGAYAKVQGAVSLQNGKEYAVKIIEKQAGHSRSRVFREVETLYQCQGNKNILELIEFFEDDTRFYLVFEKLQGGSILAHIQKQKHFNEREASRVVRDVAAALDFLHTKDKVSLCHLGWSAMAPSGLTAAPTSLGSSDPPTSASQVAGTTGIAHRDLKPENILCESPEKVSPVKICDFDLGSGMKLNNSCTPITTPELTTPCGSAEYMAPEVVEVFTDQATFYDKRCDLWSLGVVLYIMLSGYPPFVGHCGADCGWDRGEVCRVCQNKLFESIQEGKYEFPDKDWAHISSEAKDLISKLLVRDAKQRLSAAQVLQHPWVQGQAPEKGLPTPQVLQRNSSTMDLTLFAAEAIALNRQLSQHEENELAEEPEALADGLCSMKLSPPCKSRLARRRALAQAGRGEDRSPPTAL
Sequence of UniProt Q9NSY1 (whole entry, looked up): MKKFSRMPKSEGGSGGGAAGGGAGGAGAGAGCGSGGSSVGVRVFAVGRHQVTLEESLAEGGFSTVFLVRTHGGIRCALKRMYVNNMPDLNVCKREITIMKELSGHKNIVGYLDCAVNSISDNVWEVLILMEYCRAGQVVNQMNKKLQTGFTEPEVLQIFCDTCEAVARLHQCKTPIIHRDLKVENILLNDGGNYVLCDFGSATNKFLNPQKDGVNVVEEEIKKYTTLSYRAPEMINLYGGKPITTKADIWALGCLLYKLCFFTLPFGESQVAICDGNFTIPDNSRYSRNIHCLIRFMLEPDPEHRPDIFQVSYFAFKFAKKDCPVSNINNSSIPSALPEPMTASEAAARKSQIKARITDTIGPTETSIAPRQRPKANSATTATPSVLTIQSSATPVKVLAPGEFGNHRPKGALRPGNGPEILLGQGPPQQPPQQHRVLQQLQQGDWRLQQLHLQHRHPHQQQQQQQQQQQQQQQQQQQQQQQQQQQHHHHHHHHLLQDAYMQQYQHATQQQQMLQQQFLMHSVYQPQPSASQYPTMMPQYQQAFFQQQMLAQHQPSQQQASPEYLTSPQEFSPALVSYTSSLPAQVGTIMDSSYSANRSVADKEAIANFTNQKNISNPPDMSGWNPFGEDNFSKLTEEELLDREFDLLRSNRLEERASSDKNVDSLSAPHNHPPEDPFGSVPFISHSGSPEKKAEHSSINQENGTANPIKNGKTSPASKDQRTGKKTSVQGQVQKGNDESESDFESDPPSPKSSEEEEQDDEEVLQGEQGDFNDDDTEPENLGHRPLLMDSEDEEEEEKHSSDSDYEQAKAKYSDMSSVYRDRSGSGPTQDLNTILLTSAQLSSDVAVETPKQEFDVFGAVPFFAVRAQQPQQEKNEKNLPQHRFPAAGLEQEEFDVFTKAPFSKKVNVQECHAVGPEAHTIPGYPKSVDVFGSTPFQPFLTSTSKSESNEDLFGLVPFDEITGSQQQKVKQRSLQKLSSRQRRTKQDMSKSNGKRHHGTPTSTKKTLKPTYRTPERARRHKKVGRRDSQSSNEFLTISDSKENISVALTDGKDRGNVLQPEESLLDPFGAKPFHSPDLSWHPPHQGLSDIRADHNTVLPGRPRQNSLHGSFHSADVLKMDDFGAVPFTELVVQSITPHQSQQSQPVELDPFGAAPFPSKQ
Sequence of UniProt P80192 (whole entry, looked up): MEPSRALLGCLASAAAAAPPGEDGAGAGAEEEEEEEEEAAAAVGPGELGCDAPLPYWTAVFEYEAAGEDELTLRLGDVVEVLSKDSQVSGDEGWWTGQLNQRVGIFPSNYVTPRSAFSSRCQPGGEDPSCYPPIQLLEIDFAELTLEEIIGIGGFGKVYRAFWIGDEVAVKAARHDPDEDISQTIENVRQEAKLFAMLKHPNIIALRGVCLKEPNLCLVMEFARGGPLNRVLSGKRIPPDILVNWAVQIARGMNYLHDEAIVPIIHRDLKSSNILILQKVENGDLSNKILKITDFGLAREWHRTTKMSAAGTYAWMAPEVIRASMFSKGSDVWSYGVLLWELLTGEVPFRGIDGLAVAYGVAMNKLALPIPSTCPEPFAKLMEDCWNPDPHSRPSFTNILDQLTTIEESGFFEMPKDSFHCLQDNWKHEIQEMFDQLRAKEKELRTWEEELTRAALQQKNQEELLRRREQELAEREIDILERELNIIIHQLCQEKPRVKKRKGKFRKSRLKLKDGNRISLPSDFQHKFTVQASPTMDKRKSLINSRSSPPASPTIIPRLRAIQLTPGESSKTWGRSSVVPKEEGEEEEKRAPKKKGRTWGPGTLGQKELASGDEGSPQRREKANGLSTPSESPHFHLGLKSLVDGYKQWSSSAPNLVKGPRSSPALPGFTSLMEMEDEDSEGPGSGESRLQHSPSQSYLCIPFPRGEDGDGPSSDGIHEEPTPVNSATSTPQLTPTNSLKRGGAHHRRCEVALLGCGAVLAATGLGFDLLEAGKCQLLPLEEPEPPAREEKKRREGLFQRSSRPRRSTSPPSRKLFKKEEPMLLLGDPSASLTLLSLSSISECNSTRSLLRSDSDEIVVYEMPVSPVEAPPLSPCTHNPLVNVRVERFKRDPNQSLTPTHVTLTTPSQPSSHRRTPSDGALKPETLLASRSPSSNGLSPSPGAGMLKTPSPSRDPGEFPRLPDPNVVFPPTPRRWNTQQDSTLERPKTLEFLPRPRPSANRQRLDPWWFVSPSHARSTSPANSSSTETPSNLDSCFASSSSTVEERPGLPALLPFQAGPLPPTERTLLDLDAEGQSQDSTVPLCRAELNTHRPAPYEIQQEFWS

Study 1
Cell line: mouse MPNST tumor cells
Method: high-content immunofluorescence imaging
Measured: nuclear SOX9
Concentration: 10 µM
Time: 12 h
Setting: mean of 2 replicates
Reference: DMSO control
Direction: higher = more nuclear SOX9
Measurement: nuclear SOX9 intensity
CCN(CCNC(=O)Nc1ccccc1Br)c1cccc(C)c1: 121 % of DMSO
COc1ccc(-c2cnc3c(-c4cccc5ncccc45)cnn3c2)cc1: 176 % of DMSO
CN[C@@H]1[C@@H](O[C@H]2O[C@H](CO)[C@@H](N)[C@H](O)[C@H]2O)OC2C[C@@H](N)[C@@H](O[C@H]3[C@H](O)[C@@H](O)[C@H](N)C[C@@H]3N)OC2[C@@H]1O (stereo partly shown): 72.2 % of DMSO
CC(=O)c1ccc(S(=O)(=O)NC(=O)NC2CCCCC2)cc1: 91.7 % of DMSO and 117 % of DMSO
CC(C)Nc1cc(-c2csc(N(C)C(=O)c3ccc(F)cc3)n2)ncn1: 100 % of DMSO
c1ccc([C@H]2CN3CCSC3=N2)cc1: 97.5 % of DMSO
Cc1nnsc1C(=O)Nc1ccc(-n2nc(C(F)(F)F)cc2C(F)(F)F)cc1: 130 % of DMSO
CCn1c(=O)[nH]c2cc(Cl)c(Cl)cc21: 106 % of DMSO
CC(=O)NC1C(OC(C)C)OC(COC(C)=O)C(OC(C)=O)C1OC(C)=O (stereo not shown): 105 % of DMSO
CC(=O)O[C@H]1C[C@@]2(C)[C@@H](C[C@@H](O)[C@H]3[C@@]4(C)CC[C@@H](O)[C@@H](C)[C@@H]4CC[C@@]32C)/C1=C(\CCC=C(C)C)C(=O)O: 98.3 % of DMSO
CCN(CC)CCOC(=O)C(c1ccccc1)C1CCCCC1 (stereo not shown): 162 % of DMSO
CCN(CC)CCOCCOC(=O)C1(c2ccccc2)CCCC1: 130 % of DMSO
O=C1C(=O)N(Cc2ccc(Cl)c(Cl)c2)c2ccccc21: 137 % of DMSO

Study 2
SMILES: COc1cccc(CNC(=O)c2nc3scc(COCc4ccc(C(=O)O)cc4)c3c(=O)[nH]2)c1
Concentration: 1 µM
Measurement: remaining binding
SIK2 (Homo sapiens, UniProt Q9H0K1); cell-free assay, competition with immobilised ligand: 86.4%
AAK1 (Homo sapiens, UniProt Q2M2I8); binding: 100%
Ribosomal protein S6 kinase alpha-6, C-terminal kinase domain (RPS6KA6, Homo sapiens, UniProt Q9UK32); cell-free assay, competition with immobilised ligand: 100%
MAP3K6 (Homo sapiens, UniProt O95382); cell-free assay, competition with immobilised ligand: 74.5%
EPHA8 (Homo sapiens, UniProt P29322); cell-free assay, competition with immobilised ligand: 82.5%
EGFR (Homo sapiens, UniProt P00533, T790M); cell-free assay, competition with immobilised ligand: 92.1%
NEK3 (Homo sapiens, UniProt P51956); cell-free assay, competition with immobilised ligand: 78.1%
MELK (Homo sapiens, UniProt Q14680); cell-free assay, competition with immobilised ligand: 100%
CDK11A (Homo sapiens, UniProt Q9UQ88); cell-free assay, competition with immobilised ligand: 99.2%
EGFR (Homo sapiens, UniProt P00533, del746-750); cell-free assay, competition with immobilised ligand: 80.4%
SRC (Homo sapiens, UniProt P12931); cell-free assay, competition with immobilised ligand: 100%
BMP2K (Homo sapiens, UniProt Q9NSY1); cell-free assay, competition with immobilised ligand: 92.3%
MKNK2 (Homo sapiens, UniProt Q9HBH9); cell-free assay, competition with immobilised ligand: 73.2%
CSNK1A1L (Homo sapiens, UniProt Q8N752); cell-free assay, competition with immobilised ligand: 94.1%
MARK4 (Homo sapiens, UniProt Q96L34); cell-free assay, competition with immobilised ligand: 89.2%
DYRK1B (Homo sapiens, UniProt Q9Y463); cell-free assay, competition with immobilised ligand: 100%
WEE1 (Homo sapiens, UniProt P30291); cell-free assay, competition with immobilised ligand: 95.7%
Tyrosine-protein kinase ABL1, non-phosphorylated (ABL1, Homo sapiens, UniProt P00519, F317L); cell-free assay, competition with immobilised ligand: 78.7%
TTK (Homo sapiens, UniProt P33981); cell-free assay, competition with immobilised ligand: 92.8%
MAP3K1 (Homo sapiens, UniProt Q13233); cell-free assay, competition with immobilised ligand: 63.1%
HASPIN (Homo sapiens, UniProt Q8TF76); cell-free assay, competition with immobilised ligand: 92.5%
MET (Homo sapiens, UniProt P08581, M1250T); cell-free assay, competition with immobilised ligand: 98%
PLK1 (Homo sapiens, UniProt P53350); cell-free assay, competition with immobilised ligand: 54.1%
FLT3 (Homo sapiens, UniProt P36888, D835V/ITD); cell-free assay, competition with immobilised ligand: 58.4%
EGFR (Homo sapiens, UniProt P00533, del747-750/T751S); cell-free assay, competition with immobilised ligand: 74%

Study 3
Host: mouse
Matrix: microsomes or S9
Concentration: 2 µM
Time: 0.5 h
Measurement: remaining compound
COc1cc(-c2nc3ncccn3c2NC2CCCC2)cc(OC)c1OC: 1.55%
CCc1cc2c(nc(-c3ccccc3)n3nnnc23)s1: 96%
CCCc1ccc(-c2ccc(/C=C/C(=O)O)cc2)nc1: 18.1%
CC(Oc1ccccc1)C(=O)Nc1c(-c2ccccc2)nc2sccn12 (stereo not shown): 1.19%
CCOc1nnc(Cc2ccccc2)c2ccccc12: 2.23%
COc1ccc([C@H]2COc3c(ccc(O)c3OC)C2)c(OC)c1O: 10.8%
CC(CNc1nc(-c2ccccc2)nc2nc(-c3ccccc3)oc12)N1CCN(C)CC1 (stereo not shown): 59.5%

Study 4
Compound: CC(C)S(=O)(=O)c1ccc2nccc(Nc3ccc4sc(C5CCCC5)nc4c3)c2c1.Cl
Observed: kinase activity
Action: inhibitor
Concentration: 1 µM
Measurement: remaining activity
MAP3K9 (Homo sapiens, UniProt P80192): 96%
AKT1 (Homo sapiens, UniProt P31749): 94%
PNCK (Homo sapiens, UniProt Q6P2M8): 119%
PLK1 (Homo sapiens, UniProt P53350): 80%
MELK (Homo sapiens, UniProt Q14680): 93%
CAMKK2 (Homo sapiens, UniProt Q96RR4): 95%
SIK3 (Homo sapiens, UniProt Q9Y2K2): 102%
DCLK2 (Homo sapiens, UniProt Q8N568): 126%
MKNK1 (Homo sapiens, UniProt Q9BUB5): 116%
GRK5 (Homo sapiens, UniProt P34947): 105%

A few entries again (study 2):
NEK3 (Homo sapiens, UniProt P51956); cell-free assay, competition with immobilised ligand: 78.1%
CSNK1A1L (Homo sapiens, UniProt Q8N752); cell-free assay, competition with immobilised ligand: 94.1%
HASPIN (Homo sapiens, UniProt Q8TF76); cell-free assay, competition with immobilised ligand: 92.5%
BMP2K (Homo sapiens, UniProt Q9NSY1); cell-free assay, competition with immobilised ligand: 92.3%
CDK11A (Homo sapiens, UniProt Q9UQ88); cell-free assay, competition with immobilised ligand: 99.2%
FLT3 (Homo sapiens, UniProt P36888, D835V/ITD); cell-free assay, competition with immobilised ligand: 58.4%
SRC (Homo sapiens, UniProt P12931); cell-free assay, competition with immobilised ligand: 100%
